# Results gathered from unrelated publications.
# Parts stem from different laboratories: compare values within a part only.
# UniProt O14920, sequence (whole entry, looked up): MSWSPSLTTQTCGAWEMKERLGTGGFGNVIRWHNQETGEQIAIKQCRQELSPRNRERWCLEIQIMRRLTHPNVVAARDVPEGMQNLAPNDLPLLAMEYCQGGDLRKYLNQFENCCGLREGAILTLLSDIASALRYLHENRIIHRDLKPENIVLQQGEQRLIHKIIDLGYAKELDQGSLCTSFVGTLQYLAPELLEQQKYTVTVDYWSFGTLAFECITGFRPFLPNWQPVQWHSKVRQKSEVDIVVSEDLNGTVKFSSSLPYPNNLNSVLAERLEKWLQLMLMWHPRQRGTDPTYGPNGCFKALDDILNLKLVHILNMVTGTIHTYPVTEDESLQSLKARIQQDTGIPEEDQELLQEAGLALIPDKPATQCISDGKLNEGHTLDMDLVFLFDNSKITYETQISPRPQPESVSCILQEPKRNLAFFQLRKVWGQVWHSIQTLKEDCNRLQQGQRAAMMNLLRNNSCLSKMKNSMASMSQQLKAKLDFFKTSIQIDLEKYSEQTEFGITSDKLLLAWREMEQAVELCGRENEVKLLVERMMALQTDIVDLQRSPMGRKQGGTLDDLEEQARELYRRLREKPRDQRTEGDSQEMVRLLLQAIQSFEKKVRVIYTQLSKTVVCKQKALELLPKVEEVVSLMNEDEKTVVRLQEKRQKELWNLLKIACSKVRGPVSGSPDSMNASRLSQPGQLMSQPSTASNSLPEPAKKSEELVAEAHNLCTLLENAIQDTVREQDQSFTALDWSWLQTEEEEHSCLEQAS
# UniProt P17948, sequence (whole entry, looked up): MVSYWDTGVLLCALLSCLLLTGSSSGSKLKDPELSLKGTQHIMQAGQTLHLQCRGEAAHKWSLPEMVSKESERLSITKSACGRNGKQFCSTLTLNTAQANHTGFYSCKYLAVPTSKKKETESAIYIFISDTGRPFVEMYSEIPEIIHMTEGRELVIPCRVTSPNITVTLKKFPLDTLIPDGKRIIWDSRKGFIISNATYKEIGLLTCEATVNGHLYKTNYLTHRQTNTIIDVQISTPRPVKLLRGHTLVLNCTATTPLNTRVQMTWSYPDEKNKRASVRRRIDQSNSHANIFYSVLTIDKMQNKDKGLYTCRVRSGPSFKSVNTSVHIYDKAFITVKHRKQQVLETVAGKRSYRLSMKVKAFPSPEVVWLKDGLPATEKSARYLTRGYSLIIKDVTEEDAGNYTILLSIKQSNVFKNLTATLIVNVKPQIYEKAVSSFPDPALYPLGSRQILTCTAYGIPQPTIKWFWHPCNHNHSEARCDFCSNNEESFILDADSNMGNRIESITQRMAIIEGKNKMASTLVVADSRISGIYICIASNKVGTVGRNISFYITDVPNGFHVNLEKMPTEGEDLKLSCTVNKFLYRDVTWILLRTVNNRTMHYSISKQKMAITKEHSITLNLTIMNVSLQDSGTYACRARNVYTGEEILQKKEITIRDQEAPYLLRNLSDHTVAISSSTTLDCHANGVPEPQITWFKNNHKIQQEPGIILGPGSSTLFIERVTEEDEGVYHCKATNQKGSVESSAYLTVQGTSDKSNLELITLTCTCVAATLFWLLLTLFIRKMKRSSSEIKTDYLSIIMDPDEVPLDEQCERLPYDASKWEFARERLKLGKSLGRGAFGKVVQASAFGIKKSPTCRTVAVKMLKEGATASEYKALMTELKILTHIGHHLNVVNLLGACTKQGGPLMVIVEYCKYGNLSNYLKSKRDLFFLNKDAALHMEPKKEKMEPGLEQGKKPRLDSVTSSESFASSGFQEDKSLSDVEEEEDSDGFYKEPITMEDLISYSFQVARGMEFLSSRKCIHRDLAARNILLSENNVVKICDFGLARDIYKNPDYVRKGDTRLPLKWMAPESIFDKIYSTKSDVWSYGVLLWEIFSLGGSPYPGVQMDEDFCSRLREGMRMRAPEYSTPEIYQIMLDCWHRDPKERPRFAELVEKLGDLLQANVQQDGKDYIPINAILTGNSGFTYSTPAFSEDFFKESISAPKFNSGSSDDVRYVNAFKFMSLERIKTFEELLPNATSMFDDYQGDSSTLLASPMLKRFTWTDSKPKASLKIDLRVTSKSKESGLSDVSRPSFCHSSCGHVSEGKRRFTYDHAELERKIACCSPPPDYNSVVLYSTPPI
# UniProt O43683, sequence (whole entry, looked up): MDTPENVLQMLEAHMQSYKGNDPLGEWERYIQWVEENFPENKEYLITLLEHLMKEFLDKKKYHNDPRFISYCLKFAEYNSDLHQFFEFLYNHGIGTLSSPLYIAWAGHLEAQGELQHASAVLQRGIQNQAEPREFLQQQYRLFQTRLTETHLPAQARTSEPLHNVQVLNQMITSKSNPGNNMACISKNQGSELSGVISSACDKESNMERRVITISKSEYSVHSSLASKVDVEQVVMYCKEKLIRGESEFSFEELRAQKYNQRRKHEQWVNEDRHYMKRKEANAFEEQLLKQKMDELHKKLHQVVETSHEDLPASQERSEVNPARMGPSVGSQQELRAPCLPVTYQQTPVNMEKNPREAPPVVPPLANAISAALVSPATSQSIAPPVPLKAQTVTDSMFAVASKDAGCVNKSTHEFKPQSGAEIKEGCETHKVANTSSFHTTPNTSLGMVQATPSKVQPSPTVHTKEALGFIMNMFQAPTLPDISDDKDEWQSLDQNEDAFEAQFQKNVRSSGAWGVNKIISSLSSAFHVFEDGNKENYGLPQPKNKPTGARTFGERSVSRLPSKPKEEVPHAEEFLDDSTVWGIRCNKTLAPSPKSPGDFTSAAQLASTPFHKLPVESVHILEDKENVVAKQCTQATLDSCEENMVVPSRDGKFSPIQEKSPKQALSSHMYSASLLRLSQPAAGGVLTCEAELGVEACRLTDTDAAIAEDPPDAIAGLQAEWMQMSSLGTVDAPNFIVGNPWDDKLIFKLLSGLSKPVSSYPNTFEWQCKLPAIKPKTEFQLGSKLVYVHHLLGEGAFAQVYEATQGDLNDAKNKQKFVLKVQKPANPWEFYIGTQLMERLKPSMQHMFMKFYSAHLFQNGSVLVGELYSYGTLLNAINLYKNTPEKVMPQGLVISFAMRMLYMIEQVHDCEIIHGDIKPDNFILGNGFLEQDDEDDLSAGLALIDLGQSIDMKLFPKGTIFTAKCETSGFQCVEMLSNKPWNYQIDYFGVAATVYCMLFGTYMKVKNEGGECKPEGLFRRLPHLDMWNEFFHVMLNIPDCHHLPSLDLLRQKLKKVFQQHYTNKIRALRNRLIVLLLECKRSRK
# UniProt O96013, sequence (whole entry, looked up): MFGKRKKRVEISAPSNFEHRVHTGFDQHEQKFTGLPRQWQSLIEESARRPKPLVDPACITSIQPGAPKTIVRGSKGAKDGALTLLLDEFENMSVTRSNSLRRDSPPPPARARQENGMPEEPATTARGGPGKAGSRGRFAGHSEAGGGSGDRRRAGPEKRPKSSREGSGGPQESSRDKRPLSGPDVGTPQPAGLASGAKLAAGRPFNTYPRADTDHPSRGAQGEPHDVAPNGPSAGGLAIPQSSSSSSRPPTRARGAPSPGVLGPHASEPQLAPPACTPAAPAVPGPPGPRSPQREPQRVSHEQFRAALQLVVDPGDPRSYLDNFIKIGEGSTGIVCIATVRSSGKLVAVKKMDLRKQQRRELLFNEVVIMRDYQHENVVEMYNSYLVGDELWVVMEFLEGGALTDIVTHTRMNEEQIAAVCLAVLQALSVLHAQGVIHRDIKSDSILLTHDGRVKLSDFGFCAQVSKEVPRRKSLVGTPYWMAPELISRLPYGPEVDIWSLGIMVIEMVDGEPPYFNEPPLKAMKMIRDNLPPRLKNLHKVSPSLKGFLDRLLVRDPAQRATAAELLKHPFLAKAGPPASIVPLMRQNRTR
# UniProt P78368, sequence (whole entry, looked up): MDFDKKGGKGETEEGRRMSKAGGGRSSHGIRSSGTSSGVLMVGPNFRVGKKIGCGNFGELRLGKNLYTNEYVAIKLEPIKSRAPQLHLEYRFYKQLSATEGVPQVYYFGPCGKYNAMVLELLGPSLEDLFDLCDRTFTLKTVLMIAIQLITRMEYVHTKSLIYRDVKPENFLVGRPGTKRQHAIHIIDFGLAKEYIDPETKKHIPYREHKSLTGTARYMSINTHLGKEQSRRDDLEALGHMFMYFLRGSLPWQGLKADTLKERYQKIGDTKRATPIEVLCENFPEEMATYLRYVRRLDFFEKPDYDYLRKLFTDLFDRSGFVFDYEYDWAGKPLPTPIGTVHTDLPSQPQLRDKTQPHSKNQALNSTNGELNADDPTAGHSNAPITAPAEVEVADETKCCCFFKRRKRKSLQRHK
# UniProt Q86YV6, sequence (whole entry, looked up): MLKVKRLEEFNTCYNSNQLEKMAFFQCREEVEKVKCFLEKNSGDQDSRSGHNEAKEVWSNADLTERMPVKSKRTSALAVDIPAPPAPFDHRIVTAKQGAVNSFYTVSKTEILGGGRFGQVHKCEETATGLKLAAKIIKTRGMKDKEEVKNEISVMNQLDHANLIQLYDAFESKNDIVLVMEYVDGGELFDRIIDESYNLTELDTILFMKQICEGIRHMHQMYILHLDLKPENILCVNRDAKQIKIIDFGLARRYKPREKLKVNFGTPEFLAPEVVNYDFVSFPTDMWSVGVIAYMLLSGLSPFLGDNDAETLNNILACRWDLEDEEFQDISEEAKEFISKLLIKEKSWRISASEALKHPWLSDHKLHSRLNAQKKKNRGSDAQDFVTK
# UniProt P45984, sequence (whole entry, looked up): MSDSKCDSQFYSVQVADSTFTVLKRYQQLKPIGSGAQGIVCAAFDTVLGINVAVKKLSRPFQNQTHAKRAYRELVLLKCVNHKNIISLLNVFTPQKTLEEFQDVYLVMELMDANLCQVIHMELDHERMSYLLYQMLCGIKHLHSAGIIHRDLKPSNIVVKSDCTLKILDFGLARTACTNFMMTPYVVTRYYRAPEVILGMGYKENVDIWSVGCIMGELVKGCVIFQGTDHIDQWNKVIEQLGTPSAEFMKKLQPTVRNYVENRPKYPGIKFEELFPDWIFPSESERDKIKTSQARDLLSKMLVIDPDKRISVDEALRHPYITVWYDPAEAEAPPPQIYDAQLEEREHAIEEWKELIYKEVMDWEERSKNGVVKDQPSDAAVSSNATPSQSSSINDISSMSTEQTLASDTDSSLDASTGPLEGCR

# Study 1
# Structure (SMILES): C[C@H](c1ccnc(Nc2nc3ccc(-c4cc(N(C)C)ncn4)cc3[nH]2)c1)N1CCN(C(=O)CC(F)(F)F)CC1
# Read-out: cell-free assay
# Method: competition with immobilised ligand
# Tested at: 0.1 µM
target,remaining binding
"cGMP-dependent protein kinase 2 (PRKG2, Homo sapiens, UniProt Q13237)",94%
"Mitogen-activated protein kinase kinase kinase kinase 3 (MAP4K3, Homo sapiens, UniProt Q8IVH8)",100%
"Ribosomal protein S6 kinase alpha-6, N-terminal kinase domain (RPS6KA6, Homo sapiens, UniProt Q9UK32)",97%
"Dual specificity tyrosine-phosphorylation-regulated kinase 1A (DYRK1A, Homo sapiens, UniProt Q13627)",98%
"Myosin light chain kinase family member 4 (MYLK4, Homo sapiens, UniProt Q86YV6)",100%
"Cyclin-dependent kinase 11B (CDK11B, Homo sapiens, UniProt P21127)",100%
"Mitogen-activated protein kinase kinase kinase 1 (MAP3K1, Homo sapiens, UniProt Q13233)",100%
"Mitotic checkpoint serine/threonine-protein kinase BUB1 (BUB1, Homo sapiens, UniProt O43683)",95%
"Serine/threonine-protein kinase 33 (STK33, Homo sapiens, UniProt Q9BYT3)",100%
"Receptor-interacting serine/threonine-protein kinase 4 (RIPK4, Homo sapiens, UniProt P57078)",100%
"Serine/threonine-protein kinase PAK 4 (PAK4, Homo sapiens, UniProt O96013)",81%
"Wee1-like protein kinase 2 (WEE2, Homo sapiens, UniProt P0C1S8)",98%
"Serine/threonine-protein kinase WNK2 (WNK2, Homo sapiens, UniProt Q9Y3S1)",92%
"Casein kinase I isoform gamma-2 (CSNK1G2, Homo sapiens, UniProt P78368)",96%
"Dual specificity mitogen-activated protein kinase kinase 1 (MAP2K1, Homo sapiens, UniProt Q02750)",99%
"Vascular endothelial growth factor receptor 1 (FLT1, Homo sapiens, UniProt P17948)",100%

# Study 2
# Target: Diamine acetyltransferase 1 (Homo sapiens, UniProt P21673)
# Mode: inhibitor
# Tested at: 10 µM
# Relative to: control
# Target sequence (P21673 1-171): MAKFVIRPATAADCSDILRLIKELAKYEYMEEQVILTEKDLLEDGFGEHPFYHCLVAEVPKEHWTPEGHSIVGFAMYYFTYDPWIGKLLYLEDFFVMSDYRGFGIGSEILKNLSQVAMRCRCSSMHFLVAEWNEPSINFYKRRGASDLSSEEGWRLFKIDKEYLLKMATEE
SMILES,remaining activity [%]
COc1ccc2[nH]cc(CCNC(C)=O)c2c1,114
OC[C@@H](O)[C@@H](O)[C@H](O)[C@@H](O)CO,90.9
C[n+]1cc2c3c(ccc2c2ccc4cc5c(cc4c21)OCO5)OCO3,71.5
c1ccc2c(c1)CCO2,91.6
O=c1c(-c2ccc(O[C@@H]3O[C@H](CO)[C@@H](O)[C@H](O)[C@H]3O)cc2)coc2cc(O)cc(O)c12,101
NC(=O)c1cccnc1,115
COc1cc(C(=O)O)cc(OC)c1O,83.7
O=C(O)c1cc(O)cc(O)c1,80.5

# Study 3
# SMILES: O=C1NC(=O)C(c2c[nH]c3ccccc23)=C1c1c[nH]c2ccccc12
# Read-out: enzyme activity
# Mode: inhibitor
# Tested at: 0.5 µM
# Relative to: control
target,remaining activity
"TGF-beta receptor type-2 (TGFBR2, Homo sapiens, UniProt P37173)",95.5%
"Serine/threonine-protein kinase OSR1 (OXSR1, Homo sapiens, UniProt O95747)",86.3%
"Protein kinase C beta type, isoform beta-I (PRKCB, Homo sapiens, UniProt P05771)",26.1%
"Protein kinase C alpha type (PRKCA, Homo sapiens, UniProt P17252)",27.7%
"cGMP-dependent protein kinase 1, isoform beta (PRKG1, Homo sapiens, UniProt Q13976)",82.4%
"Calcium/calmodulin-dependent protein kinase type II subunit delta (CAMK2D, Homo sapiens, UniProt Q13557)",65%
"Calcium/calmodulin-dependent protein kinase kinase 2 (CAMKK2, Homo sapiens, UniProt Q96RR4)",92.8%
"Serine/threonine-protein kinase Nek2 (NEK2, Homo sapiens, UniProt P51955)",102%
"Mitogen-activated protein kinase 9 (MAPK9, Homo sapiens, UniProt P45984)",95.4%
"Death-associated protein kinase 1 (DAPK1, Homo sapiens, UniProt P53355)",79.4%
"cAMP-dependent protein kinase catalytic subunit alpha (PRKACA, Homo sapiens, UniProt P17612)",101%
"Serine/threonine-protein kinase Chk2 (CHEK2, Homo sapiens, UniProt O96017)",124%
"Cyclin-dependent kinase 5, with p25 (CDK5, Homo sapiens, UniProt Q00535)",87.4%
"Inhibitor of nuclear factor kappa-B kinase subunit epsilon (IKBKE, Homo sapiens, UniProt Q14164)",103%
"STE20/SPS1-related proline-alanine-rich protein kinase (STK39, Homo sapiens, UniProt Q9UEW8)",93.6%
"Mitogen-activated protein kinase kinase kinase 3 (MAP3K3, Homo sapiens, UniProt Q99759)",127%
"Death-associated protein kinase 2 (DAPK2, Homo sapiens, UniProt Q9UIK4)",88.6%
"Inhibitor of nuclear factor kappa-B kinase subunit beta (IKBKB, Homo sapiens, UniProt O14920)",106%
"Serine/threonine-protein kinase STK11 (STK11, Homo sapiens, UniProt Q15831)",107%
"Serine/threonine-protein kinase 10 (STK10, Homo sapiens, UniProt O94804)",49.6%
"Cyclin-dependent kinase 4, with cyclin D1 (CDK4, Homo sapiens, UniProt P11802)",97.4%
"TGF-beta receptor type-1 (TGFBR1, Homo sapiens, UniProt P36897)",96.6%
"G protein-coupled receptor kinase 3 (GRK3, Homo sapiens, UniProt P35626)",87%

# Further values, each from its own experiment
SMILES,target,method,measurement,result
C[C@@H]1CN(c2ccc(-c3cc(C(=O)NCCOCCOCCOCCOCCNC(=O)/C=C/c4[nH]cc(C(=O)N[C@@H](CC(N)=O)c5ccc(F)c(Cl)c5)c4-c4ccc(Cl)cc4F)ccc3F)cc2NC(=O)c2c[nH]c(=O)cc2C(F)(F)F)C[C@H](C)N1C,"WD repeat-containing protein 5 (WDR5, Homo sapiens, UniProt P61964)",SPR,dissociation rate constant,0.0012 s⁻¹

# Repeated from above (study 2):
SMILES,remaining activity [%]
COc1ccc2[nH]cc(CCNC(C)=O)c2c1,114
OC[C@@H](O)[C@@H](O)[C@H](O)[C@@H](O)CO,90.9
C[n+]1cc2c3c(ccc2c2ccc4cc5c(cc4c21)OCO5)OCO3,71.5
c1ccc2c(c1)CCO2,91.6
O=c1c(-c2ccc(O[C@@H]3O[C@H](CO)[C@@H](O)[C@H](O)[C@H]3O)cc2)coc2cc(O)cc(O)c12,101
NC(=O)c1cccnc1,115
COc1cc(C(=O)O)cc(OC)c1O,83.7
